Results collected from several papers.
Compare with care: the assays were run in different laboratories. Values joined by “and” are separate records of one study, mostly repeats; a detail may differ. ± marks the error that the study gave.
Cnr1: Cannabinoid receptor 1 (Cnr1, Rattus norvegicus, UniProt P20272)
Chain of UniProt P20272 (whole entry, looked up): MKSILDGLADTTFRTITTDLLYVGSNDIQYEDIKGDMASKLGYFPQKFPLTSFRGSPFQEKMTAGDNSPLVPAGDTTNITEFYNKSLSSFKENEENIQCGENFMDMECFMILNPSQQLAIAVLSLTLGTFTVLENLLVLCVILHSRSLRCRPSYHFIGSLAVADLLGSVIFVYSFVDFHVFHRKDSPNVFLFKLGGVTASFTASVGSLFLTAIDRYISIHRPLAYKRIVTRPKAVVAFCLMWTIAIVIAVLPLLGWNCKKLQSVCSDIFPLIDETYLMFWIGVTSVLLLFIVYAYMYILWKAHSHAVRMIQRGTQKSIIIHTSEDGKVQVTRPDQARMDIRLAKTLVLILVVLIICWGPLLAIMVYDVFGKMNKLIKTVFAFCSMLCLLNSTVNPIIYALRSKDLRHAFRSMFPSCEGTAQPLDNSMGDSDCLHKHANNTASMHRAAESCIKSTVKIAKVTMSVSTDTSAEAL
Beta-lactamase ADC-7: Beta-lactamase ADC-7 (Acinetobacter baumannii, UniProt Q6DRA1)
Drd3: D(3) dopamine receptor (Drd3, Rattus norvegicus, UniProt P19020)
Chain of UniProt P19020 (whole entry, looked up): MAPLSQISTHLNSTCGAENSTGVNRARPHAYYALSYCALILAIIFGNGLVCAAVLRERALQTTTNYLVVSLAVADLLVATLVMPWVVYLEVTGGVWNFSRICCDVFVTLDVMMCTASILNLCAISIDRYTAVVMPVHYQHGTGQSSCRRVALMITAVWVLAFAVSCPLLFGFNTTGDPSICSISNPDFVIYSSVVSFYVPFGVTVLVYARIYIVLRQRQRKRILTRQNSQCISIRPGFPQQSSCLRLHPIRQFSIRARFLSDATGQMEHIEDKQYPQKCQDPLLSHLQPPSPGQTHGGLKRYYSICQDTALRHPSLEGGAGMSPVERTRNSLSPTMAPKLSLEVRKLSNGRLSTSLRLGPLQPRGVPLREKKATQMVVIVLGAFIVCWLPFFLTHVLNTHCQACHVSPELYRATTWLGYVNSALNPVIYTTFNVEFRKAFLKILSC
P2RY1: P2Y purinoceptor 1 (P2RY1, Homo sapiens, UniProt P47900)
Chain of UniProt P47900 (whole entry, looked up): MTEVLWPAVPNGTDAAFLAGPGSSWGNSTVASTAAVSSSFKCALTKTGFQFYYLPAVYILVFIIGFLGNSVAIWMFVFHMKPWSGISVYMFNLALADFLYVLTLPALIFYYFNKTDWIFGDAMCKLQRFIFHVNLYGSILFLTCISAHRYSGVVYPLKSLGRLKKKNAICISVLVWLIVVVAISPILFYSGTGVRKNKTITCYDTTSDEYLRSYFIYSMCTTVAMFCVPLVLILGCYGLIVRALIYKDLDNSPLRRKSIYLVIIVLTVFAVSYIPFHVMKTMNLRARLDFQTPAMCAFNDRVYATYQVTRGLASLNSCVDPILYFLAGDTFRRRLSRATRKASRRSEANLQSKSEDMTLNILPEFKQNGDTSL
Dual specificity protein phosphatase 5: Dual specificity protein phosphatase 5 (Homo sapiens, UniProt Q16690)
Chain of UniProt Q16690 (whole entry, looked up): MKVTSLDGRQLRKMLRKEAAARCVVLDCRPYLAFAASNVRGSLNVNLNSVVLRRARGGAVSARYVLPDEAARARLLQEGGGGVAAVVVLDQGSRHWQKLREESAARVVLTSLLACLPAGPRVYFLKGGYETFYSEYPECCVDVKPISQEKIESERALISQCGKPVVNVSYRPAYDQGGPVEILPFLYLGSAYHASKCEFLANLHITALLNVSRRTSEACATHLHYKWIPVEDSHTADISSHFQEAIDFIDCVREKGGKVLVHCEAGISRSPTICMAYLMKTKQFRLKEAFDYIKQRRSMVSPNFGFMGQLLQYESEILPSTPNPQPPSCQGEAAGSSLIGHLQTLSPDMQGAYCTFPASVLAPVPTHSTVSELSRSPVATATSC
DXR: 1-deoxy-D-xylulose 5-phosphate reductoisomerase, apicoplastic (DXR, Plasmodium falciparum, UniProt O96693)
Chain of UniProt O96693 (whole entry, looked up): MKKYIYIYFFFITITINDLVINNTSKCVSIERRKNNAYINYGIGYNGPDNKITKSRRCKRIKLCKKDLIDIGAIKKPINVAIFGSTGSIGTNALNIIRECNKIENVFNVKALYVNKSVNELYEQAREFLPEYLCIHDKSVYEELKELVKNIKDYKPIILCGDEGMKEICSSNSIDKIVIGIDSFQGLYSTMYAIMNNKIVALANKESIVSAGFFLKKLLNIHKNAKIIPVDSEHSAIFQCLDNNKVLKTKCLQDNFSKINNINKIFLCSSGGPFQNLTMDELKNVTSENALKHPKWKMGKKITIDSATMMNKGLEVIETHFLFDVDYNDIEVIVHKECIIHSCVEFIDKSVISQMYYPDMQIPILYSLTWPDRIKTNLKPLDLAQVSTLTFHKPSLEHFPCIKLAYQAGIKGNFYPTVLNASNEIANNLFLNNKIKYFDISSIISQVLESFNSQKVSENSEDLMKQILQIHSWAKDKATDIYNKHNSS
MSP: Male-specific submandibular salivary gland protein (MSP, Mesocricetus auratus, UniProt Q9QXU1)
Chain of UniProt Q9QXU1 (whole entry, looked up): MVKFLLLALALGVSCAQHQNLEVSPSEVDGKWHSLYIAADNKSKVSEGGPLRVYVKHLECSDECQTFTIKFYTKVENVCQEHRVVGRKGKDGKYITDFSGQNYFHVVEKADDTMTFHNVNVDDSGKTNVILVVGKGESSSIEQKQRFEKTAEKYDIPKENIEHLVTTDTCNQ
HRH1: Histamine H1 receptor (HRH1, Homo sapiens, UniProt P35367)
Chain of UniProt P35367 (whole entry, looked up): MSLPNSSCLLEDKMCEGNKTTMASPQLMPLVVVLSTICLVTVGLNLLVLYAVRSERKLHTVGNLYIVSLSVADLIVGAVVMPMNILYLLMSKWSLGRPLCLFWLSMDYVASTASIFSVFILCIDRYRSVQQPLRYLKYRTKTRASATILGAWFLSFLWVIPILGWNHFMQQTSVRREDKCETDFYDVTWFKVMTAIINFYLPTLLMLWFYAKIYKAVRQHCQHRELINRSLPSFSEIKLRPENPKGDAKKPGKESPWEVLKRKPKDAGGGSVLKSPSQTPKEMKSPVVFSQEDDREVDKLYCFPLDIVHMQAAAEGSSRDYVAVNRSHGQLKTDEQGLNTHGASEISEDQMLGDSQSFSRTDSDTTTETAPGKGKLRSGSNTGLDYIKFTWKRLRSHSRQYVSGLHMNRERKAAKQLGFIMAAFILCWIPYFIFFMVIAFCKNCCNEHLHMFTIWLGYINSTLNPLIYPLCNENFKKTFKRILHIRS
Na(+)/H(+) exchange regulatory cofactor NHE-RF2 PDZ domain 2: Na(+)/H(+) exchange regulatory cofactor NHE-RF2, PDZ domain 2 (Homo sapiens, UniProt Q15599)
Chain of UniProt Q15599 (whole entry, looked up): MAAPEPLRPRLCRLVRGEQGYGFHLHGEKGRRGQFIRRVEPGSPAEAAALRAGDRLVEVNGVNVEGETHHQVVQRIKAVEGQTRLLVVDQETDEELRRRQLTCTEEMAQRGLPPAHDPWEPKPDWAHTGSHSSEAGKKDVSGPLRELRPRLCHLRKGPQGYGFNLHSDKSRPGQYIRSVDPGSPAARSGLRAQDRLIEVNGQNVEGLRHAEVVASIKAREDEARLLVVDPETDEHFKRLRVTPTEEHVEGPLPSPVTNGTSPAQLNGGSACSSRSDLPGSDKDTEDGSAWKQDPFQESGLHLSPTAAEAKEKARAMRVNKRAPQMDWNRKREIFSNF
APEX1: DNA repair nuclease/redox regulator APEX1 (APEX1, Homo sapiens, UniProt P27695)
Chain of UniProt P20813 (whole entry, unmodified, looked up): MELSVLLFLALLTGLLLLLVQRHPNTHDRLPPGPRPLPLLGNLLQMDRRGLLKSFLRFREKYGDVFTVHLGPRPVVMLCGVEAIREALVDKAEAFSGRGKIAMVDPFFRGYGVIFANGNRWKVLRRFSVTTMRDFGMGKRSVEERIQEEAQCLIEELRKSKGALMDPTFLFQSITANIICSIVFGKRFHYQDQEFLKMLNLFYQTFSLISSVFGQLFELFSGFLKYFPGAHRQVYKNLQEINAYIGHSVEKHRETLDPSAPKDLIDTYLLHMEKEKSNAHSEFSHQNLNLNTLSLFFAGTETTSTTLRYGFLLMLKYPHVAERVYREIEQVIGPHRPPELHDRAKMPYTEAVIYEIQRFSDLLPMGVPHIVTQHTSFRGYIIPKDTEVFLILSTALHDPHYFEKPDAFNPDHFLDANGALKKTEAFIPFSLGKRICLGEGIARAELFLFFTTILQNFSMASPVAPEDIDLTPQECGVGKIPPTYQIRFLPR
Chain of UniProt P27695 (whole entry, looked up): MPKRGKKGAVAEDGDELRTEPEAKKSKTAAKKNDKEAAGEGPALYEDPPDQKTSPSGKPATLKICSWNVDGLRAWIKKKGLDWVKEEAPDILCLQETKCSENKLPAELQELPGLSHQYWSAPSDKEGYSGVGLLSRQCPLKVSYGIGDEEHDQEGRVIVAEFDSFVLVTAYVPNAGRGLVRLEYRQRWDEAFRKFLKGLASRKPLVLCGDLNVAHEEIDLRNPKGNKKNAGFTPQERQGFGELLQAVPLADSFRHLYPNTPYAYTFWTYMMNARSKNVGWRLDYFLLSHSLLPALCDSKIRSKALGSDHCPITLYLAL
Chain of UniProt Q60492 (whole entry, looked up): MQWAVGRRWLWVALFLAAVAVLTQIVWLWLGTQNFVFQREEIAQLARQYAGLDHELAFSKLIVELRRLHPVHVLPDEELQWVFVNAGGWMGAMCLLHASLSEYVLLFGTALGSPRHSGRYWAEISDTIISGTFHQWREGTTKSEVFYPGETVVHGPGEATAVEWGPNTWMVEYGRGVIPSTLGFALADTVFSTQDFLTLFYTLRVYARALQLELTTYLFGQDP
Chain of UniProt O94760 (whole entry, looked up): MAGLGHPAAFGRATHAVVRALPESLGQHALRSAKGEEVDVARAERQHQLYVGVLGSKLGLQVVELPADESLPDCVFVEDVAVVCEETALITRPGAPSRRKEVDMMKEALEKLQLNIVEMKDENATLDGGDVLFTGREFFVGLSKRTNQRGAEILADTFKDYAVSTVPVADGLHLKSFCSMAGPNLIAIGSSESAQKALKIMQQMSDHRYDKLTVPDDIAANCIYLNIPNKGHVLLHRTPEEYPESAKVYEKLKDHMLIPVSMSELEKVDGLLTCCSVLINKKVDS
Chain of UniProt P29804 (whole entry, looked up): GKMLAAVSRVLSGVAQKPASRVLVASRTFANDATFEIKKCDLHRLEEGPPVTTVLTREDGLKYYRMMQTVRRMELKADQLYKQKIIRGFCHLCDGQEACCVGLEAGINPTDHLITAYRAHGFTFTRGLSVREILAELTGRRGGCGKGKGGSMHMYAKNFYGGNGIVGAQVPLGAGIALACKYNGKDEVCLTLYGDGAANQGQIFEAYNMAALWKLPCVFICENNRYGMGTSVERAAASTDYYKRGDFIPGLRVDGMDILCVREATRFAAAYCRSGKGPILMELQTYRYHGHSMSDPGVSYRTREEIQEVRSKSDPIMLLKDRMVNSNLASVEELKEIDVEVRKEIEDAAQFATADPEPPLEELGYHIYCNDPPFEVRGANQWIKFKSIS

Compound	target	test	test system	setting	Ki
CCC(C)n1ncn(-c2ccc(N3CCN(c4ccc(OCC5COC(Cn6cncn6)(c6ccc(Cl)cc6Cl)O5)cc4)CC3)cc2)c1=O (stereo not shown)	Cytochrome P450 2B6 (CYP2B6, Homo sapiens, UniProt P20813, K262R)	competitive inhibitor, reconstituted P450 system	–	5 min, pH 7.4, with: 7-MFC substrate	4400 nM and 4340 nM and 3840 nM
CCCN(CC[C@]1(O)C[C@@H](NS(=O)(=O)c2cccc(Cl)c2)C1)[C@H]1CCc2nc(N)sc2C1 (relative stereo)	dopamine D1-like receptor, rat	radioligand binding	rat striatal membranes	with: [3H]SCH23390	68000 ± 2300 nM
Cc1c(C(=O)NN2CCCCC2)nn(-c2ccc(Cl)cc2Cl)c1/N=N/c1cccc(Cl)c1Cl	Cnr1	radioligand binding	rat brain membranes	trans isomer, 454 nm light, with: [3H]CP55940 0.6 nM	602 ± 85 nM
O=C(Cc1cccs1)N[C@@H](Cn1cc(-c2nn[nH]n2)nn1)B(O)O	Beta-lactamase ADC-7	inhibitor	–	5 min preincubation, pH 7.4, room temperature, with: nitrocefin	76 ± 2 nM
CCCN(CC[C@]1(O)C[C@H](NC(=O)c2cccc(Cl)c2)C1)[C@H]1CCc2nc(N)sc2C1 (relative stereo)	Drd3	ligand displacement, radioligand	–	cell membranes	0.58 nM
CNc1nc(C#CCCCc2cn(CCNC(C)=O)nn2)nc2c1ncn2[C@H]1C[C@H](OP(=O)(O)O)[C@]2(COP(=O)(O)O)C[C@H]12	P2RY1	ligand displacement, radioligand	–	cell membranes	2700 nM
O=C(O)c1c(Cl)c(Cl)c(Cl)c(Cl)c1-c1c2cc(I)c(=O)c(I)c-2oc2c(I)c(O)c(I)cc12	Dual specificity protein phosphatase 5	enzyme activity, noncompetitive inhibitor	–	15 min, dark	2270 ± 140 nM
CCCN(CCC1(O)CC(NC(=O)c2ccccc2Cl)C1)[C@H]1CCc2nc(N)sc2C1 (stereo in doubt)	dopamine D1-like receptor, rat	radioligand binding	rat striatal membranes	with: [3H]SCH23390	49700 ± 2810 nM
O=C(Cn1cc(COc2ccc(-c3nc4ccccc4[nH]3)cc2)nn1)Nc1cnc(-c2ccc(Br)cc2)s1	α-glucosidase	inhibitor, Lineweaver-Burk secondary plot	–	–	8500 nM
CCCN(CC[C@]1(O)C[C@@H](NS(=O)(=O)c2ccccc2Cl)C1)[C@H]1CCc2nc(N)sc2C1 (relative stereo)	dopamine D1-like receptor, rat	radioligand binding	rat striatal membranes	with: [3H]SCH23390	94900 ± 7620 nM
Cc1cc[nH]n1	CYP2E1 (Oryctolagus cuniculus, UniProt P08682)	4-nitrophenol oxidation	reconstituted with CPR-K56Q and cytochrome b5	pH 7.4, 37 °C, with: 4-nitrophenol	21000 nM
O=C(CCCc1ccccc1)N(O)CCCP(=O)(O)O	DXR	inhibitor, Lineweaver-Burk plot	–	with: DXP varied, NADPH 150 µM	470 nM
O=C(OCc1ccccc1)c1ccccc1	MSP	binding, fluorescence displacement	–	with: 1-AMA 2 µM	1340 nM
N=C(NCCCNC(N)=O)NCCCc1c[nH]cn1	HRH1	ligand displacement, radioligand	–	cell membranes	> 31600 nM
CC(=O)N(C/C=C/P(=O)(O)O)OCc1ccc(-c2ccccc2)cc1	DXR	inhibitor, Lineweaver-Burk plot	–	with: DXP varied, NADPH 150 µM	719 nM
COc1ccccc1C1C(C(=O)c2ccc(C)cc2)=C(O)C(=O)N1CC(C)O (stereo not shown)	FPR1 (Homo sapiens, UniProt P21462)	ligand displacement in cells	–	–	10400 nM
CNc1nc(C#CCCCC(=O)OC)nc2c1ncn2[C@H]1C[C@H](OP(=O)(O)O)[C@]2(COP(=O)(O)O)C[C@H]12	P2RY1	ligand displacement, radioligand	–	cell membranes	2200 nM
CC(C)=CCC[C@@H](C)CC=O (racemic)	MSP	binding, fluorescence displacement	–	with: 1-AMA 2 µM	110 nM
CNc1nc(C#CCCCCC(=O)OC)nc2c1ncn2[C@H]1C[C@H](OP(=O)(O)O)[C@]2(COP(=O)(O)O)C[C@H]12	P2RY1	ligand displacement, radioligand	–	cell membranes	649 nM
CCCN(Cc1cccc([N+](=O)[O-])c1)C(=O)CCc1ccc(F)cc1	SIGMAR1 (Cavia porcellus, UniProt Q60492)	binding	guinea pig liver membranes	with: [3H]-(+)-pentazocine 10 nM	> 100000 nM
CC(C)C[C@H](NC(=O)[C@H](CCC(N)=O)NC(=O)[C@H](CCCNC(=N)N)NC(=O)[C@@H](N)Cc1ccccc1)C(=O)N[C@H](C(=O)N[C@@H](CO)C(=O)NCC(=O)N1CCCC[C@H]1C(=O)N[C@@H](CC(N)=O)C(=O)N[C@@H](CCC(N)=O)C(=O)N[C@@H](CCC(=O)O)C(=O)N[C@@H](CCC(N)=O)C(=O)N[C@H](C(=O)O)C(C)C)[C@@H](C)O	FAP (Homo sapiens, UniProt Q12884)	enzyme activity, inhibitor, fluorescence	–	pH 7.5	14000 nM
Cc1nc(N)sc1CCCNC(=N)NCCCCCCCCCCCCN	HRH1	ligand displacement, radioligand	–	cell membranes	501 nM
CCCN(CCC1(O)CC(NS(=O)(=O)c2cccc(OC)c2)C1)[C@H]1CCc2nc(N)sc2C1 (stereo in doubt)	dopamine D1-like receptor, rat	radioligand binding	rat striatal membranes	with: [3H]SCH23390	36500 ± 2240 nM
COc1nccnc1CC(C)C	MSP	binding, fluorescence displacement	–	with: 1-AMA 2 µM	220 nM
O=C1OC2(c3ccccc31)c1cc(I)c(O)c(I)c1Oc1c2cc(I)c(O)c1I	Dual specificity protein phosphatase 5	enzyme activity, inhibitor, absorbance	–	–	10900 nM

Compound	target	test	test system	setting	Ki
N=c1ccc2c(-c3ccc(C(=O)NCCCCCCn4cc(CCCC(=O)Nc5nc6ccc(Cl)cc6c6nc(-c7ccco7)nn56)nn4)cc3C(=O)O)c3ccc(N)c(S(=O)(=O)O)c3oc-2c1S(=O)(=O)O	ADORA1 (Homo sapiens, UniProt P30542)	ligand displacement, radioligand	–	cell membranes	87 nM
Nc1nc2[nH]c3cccc(Sc4ccc5ccccc5c4)c3c2c(=O)[nH]1	TYMS (Homo sapiens, UniProt P04818)	inhibitor	–	upper limit value, with: dUMP 100 µM, methylene-THF 100 µM	3.3 ± 2.4 nM
CCCN(CCC1(O)CC(NC(=O)c2ccccc2OC)C1)[C@H]1CCc2nc(N)sc2C1 (stereo in doubt)	dopamine D1-like receptor, rat	radioligand binding	rat striatal membranes	with: [3H]SCH23390	43500 ± 711 nM
N=C(NCCCCCCCCCCCCN)NCCCc1cnc(N)s1	HRH1	ligand displacement, radioligand	–	cell membranes	302 nM
CCCCCCCCOP(=O)(O)C(C)=O	Pyruvate dehydrogenase E1 (Sus scrofa, UniProt F1SGH5+P29804)	enzyme activity, inhibitor, NADH formation	–	with: pyruvate, competitive	57000 ± 5000 nM
N=C(N)NCCCCCCCCNC(=N)NCCCc1cnc(N)s1	HRH1	ligand displacement, radioligand	–	cell membranes	263 nM
NC(C(=O)O)[C@@H]1CCN[C@H]1C(=O)O (relative stereo)	NMDA receptor, rat	binding	cortical synaptosomes	with: [3H]-CGP 39653	8900 nM
CC(C)[C@H](NC(=O)[C@@H](NC(=O)[C@@H](NC(=O)[C@H](C)NC(=O)[C@H](Cc1ccccc1)NC(=O)[C@@H](N)CC(=O)O)[C@@H](C)O)[C@@H](C)O)C(=O)O	Na(+)/H(+) exchange regulatory cofactor NHE-RF2 PDZ domain 2	fluorescence polarization competition	–	with: FITC-labelled LPA2 peptide tracer	254000 ± 6600 nM
N=C(NCCCCCCCCNC(N)=O)NCCCc1c[nH]cn1	HRH1	ligand displacement, radioligand	–	cell membranes	> 3160 nM
O=C(O)C(CCCO)[C@@H]1CCN[C@H]1C(=O)O (relative stereo)	NMDA receptor, rat	binding	cortical synaptosomes	with: [3H]-CGP 39653	> 100000 nM
Nc1ncnc2c1ncn2[C@@H]1O[C@H](COP(=O)(O)O)[C@@H](OP(=O)(O)O)[C@H]1O	Protein-tyrosine sulfotransferase 2 (Homo sapiens, UniProt O60704)	competitive inhibitor	–	pH 7.5, 30 °C, product inhibition, with: PAPS	160 nM
CCCN(CC[C@]1(O)C[C@@H](NS(=O)(=O)c2ccc(F)cc2)C1)[C@H]1CCc2nc(N)sc2C1 (relative stereo)	Drd3	ligand displacement, radioligand	–	cell membranes	1.9 nM
Cc1c(C(=O)NN2CCCCC2)nn(-c2ccc(Cl)cc2Cl)c1/N=N/c1ccccc1	Cnr1	radioligand binding	rat brain membranes	trans isomer, 454 nm light, with: [3H]CP55940 0.6 nM	458 ± 239 nM
N=C(NCCCN)NCCCc1c[nH]cn1	HRH1	ligand displacement, radioligand	–	cell membranes	> 100000 nM
COc1ccc(/C(Cc2ccccc2)=N\Nc2ccc([N+](=O)[O-])c([N+](=O)[O-])c2)cc1	APEX1	enzyme activity, inhibitor	–	–	6700 nM
COc1ccccc1NC(=O)Cn1cc(CSc2nc3ccccc3c3nc4ccccc4n23)nn1	alpha-glucosidase (Saccharomyces cerevisiae)	inhibitor, secondary plot	–	–	12000 nM
CCCN(CCC1(O)CC(NC(=O)c2ccc(F)cc2)C1)[C@H]1CCc2nc(N)sc2C1 (stereo in doubt)	Drd3	ligand displacement, radioligand	–	cell membranes	0.89 nM
CC(C)[C@H](NC(=O)[C@H](Cc1c[nH]c2ccccc12)NC(=O)[C@@H](NC(=O)[C@H](CCC(=O)O)NC(=O)[C@H](Cc1ccccc1)NC(=O)CN)[C@@H](C)O)C(=O)O	Na(+)/H(+) exchange regulatory cofactor NHE-RF2 PDZ domain 2	fluorescence polarization competition	–	with: FITC-labelled LPA2 peptide tracer	12500 ± 2000 nM
O=C(O)C(Cc1ccccc1)[C@@H]1CCN[C@H]1C(=O)O (relative stereo)	NMDA receptor, rat	binding	cortical synaptosomes	with: [3H]-CGP 39653	> 100000 nM
CCC[C@H](N)C(=O)O	DDAH1 (Homo sapiens, UniProt O94760)	enzyme activity, inhibitor, citrulline detection	–	with: ADMA	470000 ± 20000 nM
Cc1cccc(/N=N/c2c(C)c(C(=O)NN3CCCCC3)nn2-c2ccc(Cl)cc2Cl)c1	Cnr1	radioligand binding	rat brain membranes	trans isomer, 454 nm light, with: [3H]CP55940 0.6 nM	410 ± 103 nM
O=C(O)Cc1cn(C[C@H](NC(=O)Cc2cccs2)B(O)O)nn1	Beta-lactamase ADC-7	inhibitor	–	5 min preincubation, pH 7.4, room temperature, with: nitrocefin	115 ± 2 nM
CC(C)CCCC(C)CCO (stereo not shown)	MSP	binding, fluorescence displacement	–	with: 1-AMA 2 µM	170 nM
Cc1cc(N/N=C/c2ccc3c(c2)OCO3)c2cc3c(cc2n1)OCO3	APEX1	enzyme activity, inhibitor	–	–	190 nM

Repeated from above:
Compound	target	test	test system	setting	Ki
CC(C)CCCC(C)CCO (stereo not shown)	MSP	binding, fluorescence displacement	–	with: 1-AMA 2 µM	170 nM
CC(C)[C@H](NC(=O)[C@@H](NC(=O)[C@@H](NC(=O)[C@H](C)NC(=O)[C@H](Cc1ccccc1)NC(=O)[C@@H](N)CC(=O)O)[C@@H](C)O)[C@@H](C)O)C(=O)O	Na(+)/H(+) exchange regulatory cofactor NHE-RF2 PDZ domain 2	fluorescence polarization competition	–	with: FITC-labelled LPA2 peptide tracer	254000 ± 6600 nM
COc1ccc(/C(Cc2ccccc2)=N\Nc2ccc([N+](=O)[O-])c([N+](=O)[O-])c2)cc1	APEX1	enzyme activity, inhibitor	–	–	6700 nM
Cc1cc[nH]n1	CYP2E1 (Oryctolagus cuniculus, UniProt P08682)	4-nitrophenol oxidation	reconstituted with CPR-K56Q and cytochrome b5	pH 7.4, 37 °C, with: 4-nitrophenol	21000 nM
